Assay results gathered from unrelated publications.
Every numbered part comes from another study and shows a few of its results, in no order.
UniProt Q9UIK4, sequence (whole entry, looked up): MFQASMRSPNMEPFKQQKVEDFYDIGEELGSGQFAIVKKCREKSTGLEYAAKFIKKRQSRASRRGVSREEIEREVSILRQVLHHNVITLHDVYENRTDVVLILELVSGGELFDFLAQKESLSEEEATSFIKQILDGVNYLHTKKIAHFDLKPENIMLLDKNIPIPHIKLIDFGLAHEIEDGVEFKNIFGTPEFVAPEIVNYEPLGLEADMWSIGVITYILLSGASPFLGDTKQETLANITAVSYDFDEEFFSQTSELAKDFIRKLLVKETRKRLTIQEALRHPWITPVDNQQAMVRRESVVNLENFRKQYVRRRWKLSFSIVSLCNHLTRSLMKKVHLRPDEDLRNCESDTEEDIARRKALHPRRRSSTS
UniProt P07949, sequence (whole entry, looked up): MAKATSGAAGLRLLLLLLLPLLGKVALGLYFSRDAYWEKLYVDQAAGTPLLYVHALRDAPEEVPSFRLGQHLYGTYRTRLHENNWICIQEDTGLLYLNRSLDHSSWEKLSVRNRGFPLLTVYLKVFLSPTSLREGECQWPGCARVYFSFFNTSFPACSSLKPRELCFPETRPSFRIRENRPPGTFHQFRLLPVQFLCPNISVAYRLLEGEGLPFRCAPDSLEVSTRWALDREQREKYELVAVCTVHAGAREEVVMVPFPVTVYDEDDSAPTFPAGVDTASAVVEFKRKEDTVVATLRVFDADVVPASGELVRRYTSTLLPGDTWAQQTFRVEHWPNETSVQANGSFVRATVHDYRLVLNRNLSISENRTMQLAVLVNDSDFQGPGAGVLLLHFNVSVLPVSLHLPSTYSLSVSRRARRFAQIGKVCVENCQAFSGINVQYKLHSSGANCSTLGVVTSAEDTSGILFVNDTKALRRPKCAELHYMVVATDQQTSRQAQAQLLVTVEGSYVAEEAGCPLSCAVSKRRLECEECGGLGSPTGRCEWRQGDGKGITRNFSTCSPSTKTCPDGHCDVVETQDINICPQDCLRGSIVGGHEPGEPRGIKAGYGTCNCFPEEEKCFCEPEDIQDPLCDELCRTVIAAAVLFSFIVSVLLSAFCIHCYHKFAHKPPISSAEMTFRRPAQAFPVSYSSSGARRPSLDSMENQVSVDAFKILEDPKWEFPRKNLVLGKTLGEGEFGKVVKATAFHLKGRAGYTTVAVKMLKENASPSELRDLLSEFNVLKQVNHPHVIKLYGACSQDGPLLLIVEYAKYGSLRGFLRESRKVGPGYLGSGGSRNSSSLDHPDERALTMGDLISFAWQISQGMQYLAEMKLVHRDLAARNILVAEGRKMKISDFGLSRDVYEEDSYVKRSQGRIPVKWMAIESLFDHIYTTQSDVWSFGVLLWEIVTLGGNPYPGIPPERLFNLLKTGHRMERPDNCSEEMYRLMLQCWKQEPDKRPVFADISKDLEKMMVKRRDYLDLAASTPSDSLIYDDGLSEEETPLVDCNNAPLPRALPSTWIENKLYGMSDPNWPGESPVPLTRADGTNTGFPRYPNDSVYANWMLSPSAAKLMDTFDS
UniProt Q96J92, sequence (whole entry, looked up): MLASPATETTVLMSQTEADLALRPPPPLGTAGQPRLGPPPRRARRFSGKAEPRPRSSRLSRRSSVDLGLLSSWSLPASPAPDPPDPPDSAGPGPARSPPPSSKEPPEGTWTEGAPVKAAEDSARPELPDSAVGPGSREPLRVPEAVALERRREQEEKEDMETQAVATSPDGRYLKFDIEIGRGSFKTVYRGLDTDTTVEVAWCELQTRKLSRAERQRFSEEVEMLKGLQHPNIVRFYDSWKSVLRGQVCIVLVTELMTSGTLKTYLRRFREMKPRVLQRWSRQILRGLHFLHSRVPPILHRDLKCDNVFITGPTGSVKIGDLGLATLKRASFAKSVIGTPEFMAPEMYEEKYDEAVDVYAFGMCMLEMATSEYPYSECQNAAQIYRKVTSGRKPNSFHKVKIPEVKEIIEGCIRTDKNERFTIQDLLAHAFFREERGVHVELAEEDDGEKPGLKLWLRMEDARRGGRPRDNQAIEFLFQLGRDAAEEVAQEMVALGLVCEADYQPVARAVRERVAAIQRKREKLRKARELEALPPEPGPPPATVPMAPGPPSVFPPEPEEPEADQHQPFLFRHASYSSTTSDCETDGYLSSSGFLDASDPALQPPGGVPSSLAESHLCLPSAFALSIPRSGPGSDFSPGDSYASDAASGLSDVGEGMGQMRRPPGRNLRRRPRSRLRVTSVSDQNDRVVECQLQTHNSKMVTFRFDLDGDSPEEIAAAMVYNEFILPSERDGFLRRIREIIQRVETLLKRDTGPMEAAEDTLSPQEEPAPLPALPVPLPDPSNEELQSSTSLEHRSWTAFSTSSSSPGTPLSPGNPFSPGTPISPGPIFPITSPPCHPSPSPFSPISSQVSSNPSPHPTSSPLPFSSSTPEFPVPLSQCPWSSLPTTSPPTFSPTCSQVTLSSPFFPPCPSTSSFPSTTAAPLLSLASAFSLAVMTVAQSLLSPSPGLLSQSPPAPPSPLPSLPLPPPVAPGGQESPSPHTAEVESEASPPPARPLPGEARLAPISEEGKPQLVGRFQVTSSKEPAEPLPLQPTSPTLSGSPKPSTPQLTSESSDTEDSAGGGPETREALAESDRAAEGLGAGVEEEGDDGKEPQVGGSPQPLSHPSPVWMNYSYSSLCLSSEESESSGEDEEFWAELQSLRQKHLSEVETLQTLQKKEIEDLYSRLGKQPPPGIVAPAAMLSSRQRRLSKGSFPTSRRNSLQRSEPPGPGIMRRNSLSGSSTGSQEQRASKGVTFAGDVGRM
UniProt Q9HBH9, sequence (whole entry, looked up): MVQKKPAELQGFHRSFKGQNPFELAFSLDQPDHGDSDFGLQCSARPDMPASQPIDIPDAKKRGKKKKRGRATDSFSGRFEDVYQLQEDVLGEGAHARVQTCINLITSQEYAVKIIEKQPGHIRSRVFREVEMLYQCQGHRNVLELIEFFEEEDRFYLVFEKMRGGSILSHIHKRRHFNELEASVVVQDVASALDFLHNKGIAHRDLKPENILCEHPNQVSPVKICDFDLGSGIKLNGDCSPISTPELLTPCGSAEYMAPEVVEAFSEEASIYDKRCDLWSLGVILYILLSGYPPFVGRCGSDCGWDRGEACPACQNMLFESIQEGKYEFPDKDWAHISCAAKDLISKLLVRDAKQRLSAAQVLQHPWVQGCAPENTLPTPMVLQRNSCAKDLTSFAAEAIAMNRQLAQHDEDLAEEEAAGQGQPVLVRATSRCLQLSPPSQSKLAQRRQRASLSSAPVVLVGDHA
UniProt Q08881, sequence (whole entry, looked up): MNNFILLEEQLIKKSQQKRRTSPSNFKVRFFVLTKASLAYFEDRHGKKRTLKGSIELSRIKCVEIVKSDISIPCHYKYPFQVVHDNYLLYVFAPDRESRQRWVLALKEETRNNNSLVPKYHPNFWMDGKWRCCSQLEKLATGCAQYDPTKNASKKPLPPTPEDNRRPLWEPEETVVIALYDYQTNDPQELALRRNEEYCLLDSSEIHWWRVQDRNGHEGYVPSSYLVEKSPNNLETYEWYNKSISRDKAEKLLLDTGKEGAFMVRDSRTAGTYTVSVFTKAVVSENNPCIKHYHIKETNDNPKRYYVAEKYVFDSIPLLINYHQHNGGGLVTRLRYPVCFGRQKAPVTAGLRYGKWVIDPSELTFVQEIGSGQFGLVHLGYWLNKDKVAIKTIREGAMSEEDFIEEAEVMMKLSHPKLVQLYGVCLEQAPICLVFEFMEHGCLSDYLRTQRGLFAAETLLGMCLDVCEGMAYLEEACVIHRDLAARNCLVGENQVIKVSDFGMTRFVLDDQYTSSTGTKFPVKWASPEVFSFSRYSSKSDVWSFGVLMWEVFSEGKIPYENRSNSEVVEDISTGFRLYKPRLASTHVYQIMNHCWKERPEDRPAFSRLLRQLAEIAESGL

Set 1 — organism: Sarcocystis neurona; observed: parasite growth; tested at: 10 µM; measurement: inhibition
CCOc1cc(N)c(Cl)cc1C(=O)NCC1CN(Cc2ccc(F)cc2)CCO1 (stereo not shown): 45.2%
Cc1ccc(S(=O)(=O)NC(=O)NN2CCCCCC2)cc1: -20.2%
O=C(O[C@H]1[C@H](Oc2ccccc2COC(=O)C2(O)C=CCCC2=O)O[C@H](CO)[C@@H](O)[C@@H]1O)c1ccccc1 (stereo partly shown): -27.2%
CC(CCc1ccccc1)NCC(O)c1ccc(O)c(C(N)=O)c1 (stereo not shown): -31.4%
COc1cc(C[C@@H](CO)[C@H](CO)Cc2ccc(O)c(OC)c2)ccc1O: -23.6%
NNC(=O)c1ccncc1: -26.6%
Nc1cc(N2CCCCC2)nc(N)[n+]1[O-]: -27.7%
c1cnc(N2CCN(Cc3ccc4c(c3)OCO4)CC2)nc1: -34.9%
CCc1c(C)[nH]c2c1C(=O)C(CN1CCOCC1)CC2 (stereo not shown): -25.7%
CC1=C(/C=C/C(C)=C/C=C/C(C)=C/C(=O)O)C(C)(C)CCC1: -39.9%
C#C[C@]1(O)CC[C@H]2[C@@H]3CCc4cc(OC)ccc4[C@H]3CC[C@@]21C: -43.9%
CC(C(=O)O)c1cccc(C(=O)c2ccccc2)c1 (stereo not shown): -27.9%
CC12CC3CC(C)(C1)CC(N)(C3)C2: -25%

Set 2 — species: mouse; sample: microsomes or S9; tested at: 2 µM; time: 0.5 h; measurement: remaining compound
CC(C)C(=O)Nc1ccc(N2CCCCC2C)cc1 (stereo not shown): 24.3%
OC(Cc1c[nH]c2ccccc12)(c1ccccc1)c1ccccc1: 46%
O=C(NC1CCCCC1)c1nnn(-c2ccccc2Cl)c1-c1cccnc1: 29.3%
Fc1ccc(-c2n[nH]cc2Cn2cnc(-c3ccccc3)c2-c2ncc[nH]2)cc1: 0.308%
O=C(c1ccc(Cn2ccn3nc4c(c3c2=O)CCCC4)cc1)N1CCN(c2ccccc2F)CC1: 5.21%
O=C(Nc1cccc(F)c1)C1CC(=O)N(Cc2ccccn2)c2nc3ccccc3n21 (stereo not shown): 30.5%
CC(C)(C)S(=O)(=O)c1ccc2nc3c(n2c1)CCCC3: 4.61%
CC(c1cnccn1)N1CCN(S(C)(=O)=O)c2ccccc2C1 (stereo not shown): 15.7%

Set 3 — method: competition with immobilised ligand; tested at: 1 µM; measurement: remaining binding
Structure (SMILES): Cc1c(C(=O)O)cc(-c2ccc(C3CCNCC3)cc2)c2ccc(-c3ccc(C(F)(F)F)cc3)cc12
MKNK2 (Homo sapiens, UniProt Q9HBH9); binding: 100%
STK33 (Homo sapiens, UniProt Q9BYT3); binding: 100%
MARK1 (Homo sapiens, UniProt Q9P0L2); binding: 100%
DAPK2 (Homo sapiens, UniProt Q9UIK4); binding: 100%
RET (Homo sapiens, UniProt P07949); cell-free assay: 99%
PAK4 (Homo sapiens, UniProt O96013); cell-free assay: 100%
FLT3 (Homo sapiens, UniProt P36888, ITD); binding: 81%
PIK3CA (Homo sapiens, UniProt P42336, C420R); cell-free assay: 100%
TIE1 (Homo sapiens, UniProt P35590); cell-free assay: 100%
CASK (Homo sapiens, UniProt O14936); cell-free assay: 100%
DAPK1 (Homo sapiens, UniProt P53355); binding: 100%
PIK3CG (Homo sapiens, UniProt P48736); cell-free assay: 100%
ITK (Homo sapiens, UniProt Q08881); cell-free assay: 100%
TAOK2 (Homo sapiens, UniProt Q9UL54); binding: 100%
PIK3C2G (Homo sapiens, UniProt O75747); binding: 100%
WNK2 (Homo sapiens, UniProt Q9Y3S1); binding: 100%
FGFR3 (Homo sapiens, UniProt P22607, G697C); cell-free assay: 100%
WNK4 (Homo sapiens, UniProt Q96J92); binding: 100%

Set 4 — cell line: HaCaT; tested at: 100 µM; time: 36 h; measurement: viability
O=c1ccc2ccccc2o1: 90.3%
CC(=O)N[C@@H](CS)C(=O)O: 96%
NC(=O)N1c2ccccc2CC(=O)c2ccccc21: 69.7%
CN1CCN(c2c(F)cc3c(=O)c(C(=O)O)cn4c3c2OCN4C)CC1: 98.8%
COc1ccc2c(c1)c(CC(=O)O)c(C)n2C(=O)c1ccc(Cl)cc1: 76.8%
CC(C)NCC(O)COc1ccc(CCOCC2CC2)cc1 (stereo not shown): 72.7%
C/C(O)=C(\C#N)C(=O)Nc1ccc(C(F)(F)F)cc1: 62.6%

Some of these lines once more (set 1):
NNC(=O)c1ccncc1: -26.6%
Nc1cc(N2CCCCC2)nc(N)[n+]1[O-]: -27.7%
c1cnc(N2CCN(Cc3ccc4c(c3)OCO4)CC2)nc1: -34.9%
CCc1c(C)[nH]c2c1C(=O)C(CN1CCOCC1)CC2 (stereo not shown): -25.7%
CC1=C(/C=C/C(C)=C/C=C/C(C)=C/C(=O)O)C(C)(C)CCC1: -39.9%
C#C[C@]1(O)CC[C@H]2[C@@H]3CCc4cc(OC)ccc4[C@H]3CC[C@@]21C: -43.9%
CC(C(=O)O)c1cccc(C(=O)c2ccccc2)c1 (stereo not shown): -27.9%
